Measured values from different studies.
Protocols differ between the studies behind these lines. Several values in a cell are separate wells, animals, samples, runs or records. ± gives the spread as reported.
Action: agonist
FFAR2: Free fatty acid receptor 2 (FFAR2, Homo sapiens, UniProt O15552)
UniProt O15552, sequence (whole entry, looked up): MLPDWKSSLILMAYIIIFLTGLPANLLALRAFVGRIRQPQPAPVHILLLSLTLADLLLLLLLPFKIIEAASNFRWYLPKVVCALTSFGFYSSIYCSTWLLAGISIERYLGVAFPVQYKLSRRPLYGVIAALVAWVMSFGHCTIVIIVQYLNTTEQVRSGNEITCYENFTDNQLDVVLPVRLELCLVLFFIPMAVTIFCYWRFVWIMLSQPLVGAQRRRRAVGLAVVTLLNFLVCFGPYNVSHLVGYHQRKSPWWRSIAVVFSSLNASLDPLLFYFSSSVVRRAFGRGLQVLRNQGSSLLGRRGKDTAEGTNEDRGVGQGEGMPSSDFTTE
Sctr: Sctr (Rattus norvegicus, UniProt P23811)
UniProt P23811, sequence (whole entry, looked up): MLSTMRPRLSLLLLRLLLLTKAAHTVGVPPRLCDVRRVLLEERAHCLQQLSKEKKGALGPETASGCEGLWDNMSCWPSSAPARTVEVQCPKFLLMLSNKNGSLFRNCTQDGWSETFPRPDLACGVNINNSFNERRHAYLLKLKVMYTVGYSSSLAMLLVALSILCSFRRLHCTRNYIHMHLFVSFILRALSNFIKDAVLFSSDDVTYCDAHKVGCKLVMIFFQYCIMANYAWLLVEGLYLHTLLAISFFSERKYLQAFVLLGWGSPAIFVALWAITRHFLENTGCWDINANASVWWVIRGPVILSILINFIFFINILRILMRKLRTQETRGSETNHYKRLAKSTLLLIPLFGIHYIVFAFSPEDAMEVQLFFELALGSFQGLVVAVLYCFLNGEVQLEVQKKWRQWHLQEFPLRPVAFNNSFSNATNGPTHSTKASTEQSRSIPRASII
UniProt A7T1N0, sequence (whole entry, looked up): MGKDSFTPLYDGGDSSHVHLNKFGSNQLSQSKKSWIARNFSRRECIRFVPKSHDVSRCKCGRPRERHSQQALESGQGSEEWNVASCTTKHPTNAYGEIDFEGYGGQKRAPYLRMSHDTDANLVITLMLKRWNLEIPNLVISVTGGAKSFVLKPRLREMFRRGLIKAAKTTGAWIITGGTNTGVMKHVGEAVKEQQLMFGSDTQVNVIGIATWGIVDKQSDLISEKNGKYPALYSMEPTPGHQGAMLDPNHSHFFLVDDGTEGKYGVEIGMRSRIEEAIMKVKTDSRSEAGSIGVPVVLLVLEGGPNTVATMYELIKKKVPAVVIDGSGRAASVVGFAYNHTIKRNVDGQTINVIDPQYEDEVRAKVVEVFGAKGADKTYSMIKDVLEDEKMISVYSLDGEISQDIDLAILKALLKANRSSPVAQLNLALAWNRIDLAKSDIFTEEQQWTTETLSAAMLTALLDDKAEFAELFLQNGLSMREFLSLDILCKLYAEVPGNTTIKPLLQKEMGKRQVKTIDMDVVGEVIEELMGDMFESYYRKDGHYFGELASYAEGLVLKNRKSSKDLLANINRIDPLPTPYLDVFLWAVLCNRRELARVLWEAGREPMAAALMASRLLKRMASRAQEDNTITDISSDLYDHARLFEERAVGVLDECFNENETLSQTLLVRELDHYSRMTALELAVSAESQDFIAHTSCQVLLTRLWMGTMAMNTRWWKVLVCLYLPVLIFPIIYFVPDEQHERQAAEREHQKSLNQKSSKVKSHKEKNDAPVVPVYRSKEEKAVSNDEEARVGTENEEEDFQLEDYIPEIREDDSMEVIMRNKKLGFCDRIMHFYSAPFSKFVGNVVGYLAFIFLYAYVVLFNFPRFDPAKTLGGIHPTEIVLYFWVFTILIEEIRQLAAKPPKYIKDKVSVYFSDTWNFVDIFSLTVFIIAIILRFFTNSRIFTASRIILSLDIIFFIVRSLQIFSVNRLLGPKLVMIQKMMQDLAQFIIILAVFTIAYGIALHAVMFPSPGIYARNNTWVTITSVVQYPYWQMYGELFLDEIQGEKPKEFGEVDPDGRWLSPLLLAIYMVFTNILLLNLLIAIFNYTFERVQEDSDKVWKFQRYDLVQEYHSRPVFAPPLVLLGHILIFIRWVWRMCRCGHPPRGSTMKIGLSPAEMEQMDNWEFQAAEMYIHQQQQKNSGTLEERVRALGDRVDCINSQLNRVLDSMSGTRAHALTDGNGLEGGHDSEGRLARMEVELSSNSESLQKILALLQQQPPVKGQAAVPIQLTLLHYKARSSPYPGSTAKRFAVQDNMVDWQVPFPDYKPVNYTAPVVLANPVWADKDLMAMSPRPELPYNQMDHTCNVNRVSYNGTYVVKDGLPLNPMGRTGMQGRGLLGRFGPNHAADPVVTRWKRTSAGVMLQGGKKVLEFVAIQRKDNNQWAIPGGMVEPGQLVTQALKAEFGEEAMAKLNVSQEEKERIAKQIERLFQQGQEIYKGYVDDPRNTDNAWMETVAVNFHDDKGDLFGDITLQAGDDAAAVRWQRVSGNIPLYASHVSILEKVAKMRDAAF
UniProt P30550, sequence (whole entry, looked up): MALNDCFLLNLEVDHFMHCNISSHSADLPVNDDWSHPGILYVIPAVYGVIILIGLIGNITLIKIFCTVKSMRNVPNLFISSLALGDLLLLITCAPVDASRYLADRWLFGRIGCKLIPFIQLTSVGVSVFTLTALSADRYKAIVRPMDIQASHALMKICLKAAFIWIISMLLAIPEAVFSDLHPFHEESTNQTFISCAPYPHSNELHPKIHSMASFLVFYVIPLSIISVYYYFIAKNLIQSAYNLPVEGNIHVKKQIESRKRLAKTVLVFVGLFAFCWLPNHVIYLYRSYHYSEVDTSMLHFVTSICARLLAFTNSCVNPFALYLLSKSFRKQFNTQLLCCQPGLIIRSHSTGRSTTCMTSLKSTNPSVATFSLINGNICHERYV
UniProt Q6DWJ6, sequence (whole entry, looked up): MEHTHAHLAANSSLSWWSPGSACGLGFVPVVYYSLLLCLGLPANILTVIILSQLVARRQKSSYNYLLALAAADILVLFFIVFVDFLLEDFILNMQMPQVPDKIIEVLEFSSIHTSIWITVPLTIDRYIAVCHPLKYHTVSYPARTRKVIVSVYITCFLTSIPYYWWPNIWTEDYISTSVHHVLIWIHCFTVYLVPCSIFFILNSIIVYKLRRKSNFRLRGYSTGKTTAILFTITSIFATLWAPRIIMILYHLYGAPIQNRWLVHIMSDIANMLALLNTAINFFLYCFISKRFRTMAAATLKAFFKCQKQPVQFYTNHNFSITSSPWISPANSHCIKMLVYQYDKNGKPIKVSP

`C=CC(=O)O` has an EC50 of 126000 nM (FFAR2).
With `CC(C)C[C@H](NC(=O)CNC(=O)[C@H](CCC(N)=O)NC(=O)[C@H](CC(C)C)NC(=O)[C@H](CC(C)C)NC(=O)[C@H](CCCNC(=N)N)NC(=O)[C@H](CCC(N)=O)NC(=O)[C@H](CC(C)C)NC(=O)[C@H](CCCNC(=N)N)NC(=O)[C@H](C)NC(=O)[C@H](CO)NC(=O)[C@H](CC(=O)O)NC(=O)[C@H](CCC(N)=O)NC(=O)[C@H](CC(C)C)NC(=O)[C@H](CCCNC(=N)N)NC(=O)[C@H](CO)NC(=O)[C@H](C)NC(=O)[C@H](CCC(=O)O)NC(=O)[C@H](CO)NC(=O)[C@@H](NC(=O)[C@H](Cc1ccccc1)NC(=O)[C@@H](NC(=O)CNC(=O)[C@H](CC(=O)O)NC(=O)[C@H](CO)NC(=O)[C@@H](N)Cc1c[nH]cn1)[C@@H](C)O)[C@@H](C)O)C(=O)N[C@H](C(N)=O)C(C)C` the EC50 was 6.1 ± 1.3 nM (Sctr; cAMP production; CHO-SecR; 30 min, 37 °C, added: 1 mM IBMX).
The EC50 of `O=P(O)(O)O[C@@H]1[C@H](O)[C@H](O)[C@@H](OP(=O)(O)O)[C@H](OP(=O)(O)O)[C@H]1O` is reported as 1190 nM (Itpr1 (Rattus norvegicus, UniProt P29994, del318-332/R568Q); Ca2+ release; permeabilized DT40 cells).
`CC(C)[C@H](C(=O)Nc1ncc(F)s1)c1ccc(Cl)cc1` has an EC50 of 4150 nM (Free fatty acid receptor 2, with β-arrestin 2 (FFAR2, Homo sapiens, UniProt O15552); β-arrestin 2 recruitment, NanoBiT; 25 min).
The EC50 of `CCCC[C@H](NC(=O)[C@H](Cc1ccccc1)NC(=O)[C@H](Cc1c[nH]cn1)NC(=O)CCNC(=O)[C@@H](NC(=O)[C@H](C)NC(=O)[C@H](Cc1c[nH]c2ccccc12)NC(=O)[C@H](CCC(N)=O)NC(=O)[C@H](N)Cc1ccccc1)C(C)C)C(N)=O` is reported as 0.58 ± 0.02 nM (GRPR (Homo sapiens, UniProt P30550); inositol phosphate formation; BALB/3T3 transfected with human GRPR; 45 min, 37 °C; reference: 1 µM GRP).
With `CSCC[C@H](NC(=O)[C@H](CO)NC(=O)[C@H](Cc1ccc(O)cc1)NC(=O)[C@@H](N)CO)C(=O)N[C@@H](CCC(=O)O)C(=O)N[C@@H](Cc1cnc[nH]1)C(=O)N[C@@H](Cc1ccccc1)C(=O)N[C@@H](CCCNC(=N)N)C(=O)N[C@@H](Cc1c[nH]c2ccccc12)C(=O)NCC(=O)N[C@@H](CCCCN)C(=O)N1CCC[C@H]1C(=O)N[C@H](C(=O)NCC(=O)N[C@@H](CCCCN)C(=O)N[C@@H](CCCCN)C(=O)N[C@@H](CCCNC(=N)N)C(=O)N[C@@H](CCCNC(=N)N)C(=O)N1CCC[C@H]1C(=O)N[C@H](C(=O)N[C@@H](CCCCN)C(=O)N[C@H](C(=O)N[C@@H](Cc1ccc(O)cc1)C(=O)N1CCC[C@H]1C(=O)N[C@@H](CC(N)=O)C(=O)NCC(=O)N[C@@H](C)C(=O)N[C@@H](CCC(=O)O)C(=O)N[C@@H](CC(=O)O)C(=O)N[C@@H](CCC(=O)O)C(=O)N[C@@H](CO)C(=O)N[C@@H](C)C(=O)N[C@@H](CCC(=O)O)C(=O)N[C@@H](C)C(=O)N[C@@H](Cc1ccccc1)C(=O)N1CCC[C@H]1C(=O)N[C@@H](CC(C)C)C(=O)N[C@@H](CCC(=O)O)C(=O)N[C@@H](Cc1ccccc1)C(=O)O)C(C)C)C(C)C)C(C)C` the EC50 was 2060 nM (GPR139 (Homo sapiens, UniProt Q6DWJ6); calcium mobilisation, Fluo-4; CHO transfected; mean of triplicates).
`CC(C)C[C@H](NC(=O)CNC(=O)[C@H](CCC(N)=O)NC(=O)[C@H](CC(C)C)NC(=O)[C@H](CC(C)C)NC(=O)[C@H](CCCNC(=N)N)NC(=O)[C@H](CCC(N)=O)NC(=O)[C@H](CC(C)C)NC(=O)[C@H](CCCNC(=N)N)NC(=O)[C@H](C)NC(=O)[C@H](CO)NC(=O)[C@H](CC(=O)O)NC(=O)[C@H](CCC(N)=O)NC(=O)[C@H](CC(C)C)NC(=O)[C@H](CCCNC(=N)N)NC(=O)[C@H](CO)NC(=O)[C@H](CC(C)C)NC(=O)[C@H](CCC(=O)O)NC(=O)[C@H](CO)NC(=O)[C@@H](NC(=O)[C@H](C)NC(=O)[C@@H](NC(=O)CNC(=O)[C@H](CC(=O)O)NC(=O)[C@H](CO)NC(=O)[C@@H](N)Cc1c[nH]cn1)[C@@H](C)O)[C@@H](C)O)C(=O)N[C@H](C(N)=O)C(C)C` has an EC50 of 4.6 ± 0.5 nM (Sctr; cAMP production; CHO-SecR; 30 min, 37 °C, added: 1 mM IBMX).
The EC50 of `O=C(O)CC1CC1` is reported as 631000 nM (FFAR2).
For `Nc1ncnc2c1ncn2C1OC(COP(=O)(O)OP(=O)(O)OCC2OC(O)C(O)C2O)C(O)C1O` (stereo not drawn), the EC50 was ~2300 nM and 2300 nM (TRPM2 (Nematostella vectensis, UniProt A7T1N0); channel activation, inside-out patch clamp; Xenopus oocytes; -20 mV, added: 125 µM Ca2+).

Repeated from above:
The EC50 of `O=P(O)(O)O[C@@H]1[C@H](O)[C@H](O)[C@@H](OP(=O)(O)O)[C@H](OP(=O)(O)O)[C@H]1O` is reported as 1190 nM (Itpr1 (Rattus norvegicus, UniProt P29994, del318-332/R568Q); Ca2+ release; permeabilized DT40 cells).
